Measurements gathered from unrelated publications.
“And” joins repeats or separate records; there may be more than shown. ± gives the spread as reported.
OfChi-h: Chitinase (OfChi-h, Ostrinia furnacalis, UniProt Q4AE59)
Uncharacterized protein: Uncharacterized protein (Trypanosoma brucei brucei, UniProt Q386Q8)
TDP1: Tyrosyl-DNA phosphodiesterase 1 (TDP1, Homo sapiens, UniProt Q9NUW8)
Sequence of UniProt Q9NUW8 (whole entry, looked up): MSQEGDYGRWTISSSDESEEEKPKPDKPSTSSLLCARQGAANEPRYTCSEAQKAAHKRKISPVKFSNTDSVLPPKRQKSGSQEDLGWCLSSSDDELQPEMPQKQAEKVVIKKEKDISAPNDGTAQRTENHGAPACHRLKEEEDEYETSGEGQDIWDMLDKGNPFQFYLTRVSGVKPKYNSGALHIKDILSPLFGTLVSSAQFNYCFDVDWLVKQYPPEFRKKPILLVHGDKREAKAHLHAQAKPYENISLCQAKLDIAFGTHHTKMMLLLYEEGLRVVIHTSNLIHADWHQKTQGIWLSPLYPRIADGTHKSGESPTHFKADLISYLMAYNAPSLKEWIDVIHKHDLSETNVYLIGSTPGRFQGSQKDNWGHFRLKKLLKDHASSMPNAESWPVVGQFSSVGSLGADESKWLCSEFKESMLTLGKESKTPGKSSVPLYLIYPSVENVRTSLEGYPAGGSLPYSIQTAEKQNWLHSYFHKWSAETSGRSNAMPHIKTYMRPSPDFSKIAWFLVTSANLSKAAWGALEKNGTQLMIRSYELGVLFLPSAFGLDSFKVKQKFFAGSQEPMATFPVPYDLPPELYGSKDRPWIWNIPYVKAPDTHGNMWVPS
CCKAR: Cholecystokinin receptor type A (CCKAR, Homo sapiens, UniProt P32238)
Sequence of UniProt P32238 (whole entry, looked up): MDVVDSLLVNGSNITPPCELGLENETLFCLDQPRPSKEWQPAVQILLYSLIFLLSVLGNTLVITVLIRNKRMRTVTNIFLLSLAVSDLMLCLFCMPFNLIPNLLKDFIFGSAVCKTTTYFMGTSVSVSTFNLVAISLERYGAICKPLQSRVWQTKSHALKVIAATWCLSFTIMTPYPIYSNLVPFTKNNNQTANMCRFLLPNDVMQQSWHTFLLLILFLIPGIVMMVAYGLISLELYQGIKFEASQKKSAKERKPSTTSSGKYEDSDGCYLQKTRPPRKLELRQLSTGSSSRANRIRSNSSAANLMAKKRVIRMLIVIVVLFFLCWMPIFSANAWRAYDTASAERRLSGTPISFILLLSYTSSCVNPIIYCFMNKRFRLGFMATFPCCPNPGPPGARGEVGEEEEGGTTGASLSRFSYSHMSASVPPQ
ppa: Inorganic pyrophosphatase (ppa, Escherichia coli, UniProt P0A7A9)
Sequence of UniProt Q93009 (whole entry, unmodified, looked up): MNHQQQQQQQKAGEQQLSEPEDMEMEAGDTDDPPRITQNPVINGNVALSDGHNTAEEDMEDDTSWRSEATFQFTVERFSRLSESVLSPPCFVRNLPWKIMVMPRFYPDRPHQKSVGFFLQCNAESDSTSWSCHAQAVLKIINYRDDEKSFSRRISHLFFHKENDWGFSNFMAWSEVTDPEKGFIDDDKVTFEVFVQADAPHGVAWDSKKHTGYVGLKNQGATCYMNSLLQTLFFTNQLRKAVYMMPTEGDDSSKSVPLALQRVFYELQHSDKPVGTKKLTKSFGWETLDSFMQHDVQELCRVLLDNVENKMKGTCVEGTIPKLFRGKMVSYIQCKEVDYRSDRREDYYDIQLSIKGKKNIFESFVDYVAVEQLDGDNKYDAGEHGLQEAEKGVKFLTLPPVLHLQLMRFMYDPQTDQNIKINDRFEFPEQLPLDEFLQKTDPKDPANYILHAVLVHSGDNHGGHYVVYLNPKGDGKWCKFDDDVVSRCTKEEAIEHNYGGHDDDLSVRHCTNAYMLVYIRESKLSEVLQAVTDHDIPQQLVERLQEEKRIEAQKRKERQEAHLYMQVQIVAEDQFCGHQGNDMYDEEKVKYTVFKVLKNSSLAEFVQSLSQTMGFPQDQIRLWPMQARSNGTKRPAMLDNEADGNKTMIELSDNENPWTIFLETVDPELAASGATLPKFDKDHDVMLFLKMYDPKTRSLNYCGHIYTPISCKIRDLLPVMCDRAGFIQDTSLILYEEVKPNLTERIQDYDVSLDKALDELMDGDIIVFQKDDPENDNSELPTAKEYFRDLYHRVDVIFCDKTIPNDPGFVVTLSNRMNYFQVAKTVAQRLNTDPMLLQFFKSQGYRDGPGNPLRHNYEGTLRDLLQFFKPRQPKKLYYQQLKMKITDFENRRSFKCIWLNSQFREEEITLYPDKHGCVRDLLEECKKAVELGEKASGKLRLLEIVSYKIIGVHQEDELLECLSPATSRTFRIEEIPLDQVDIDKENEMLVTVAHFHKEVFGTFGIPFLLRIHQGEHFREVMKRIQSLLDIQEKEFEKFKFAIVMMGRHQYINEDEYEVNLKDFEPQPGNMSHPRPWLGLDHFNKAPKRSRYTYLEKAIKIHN
Sequence of UniProt P0A7A9 (whole entry, looked up): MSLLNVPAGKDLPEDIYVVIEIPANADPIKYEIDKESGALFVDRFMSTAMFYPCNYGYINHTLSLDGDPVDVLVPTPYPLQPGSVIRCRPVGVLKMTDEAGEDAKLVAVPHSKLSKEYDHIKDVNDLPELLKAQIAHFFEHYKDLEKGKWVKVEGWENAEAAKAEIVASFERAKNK
Sequence of UniProt P29371 (whole entry, looked up): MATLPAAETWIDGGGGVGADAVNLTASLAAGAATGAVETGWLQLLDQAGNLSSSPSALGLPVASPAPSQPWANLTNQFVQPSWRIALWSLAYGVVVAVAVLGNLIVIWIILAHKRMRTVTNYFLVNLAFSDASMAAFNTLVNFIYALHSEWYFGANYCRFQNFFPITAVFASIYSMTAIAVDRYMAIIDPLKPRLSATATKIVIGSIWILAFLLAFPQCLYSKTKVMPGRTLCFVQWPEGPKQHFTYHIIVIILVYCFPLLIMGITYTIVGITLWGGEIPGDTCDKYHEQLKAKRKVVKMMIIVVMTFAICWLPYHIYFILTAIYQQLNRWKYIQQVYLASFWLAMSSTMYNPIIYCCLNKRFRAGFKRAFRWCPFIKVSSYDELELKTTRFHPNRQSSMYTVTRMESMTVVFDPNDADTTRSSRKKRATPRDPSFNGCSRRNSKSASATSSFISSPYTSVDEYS
Sequence of UniProt Q6SA08 (whole entry, looked up): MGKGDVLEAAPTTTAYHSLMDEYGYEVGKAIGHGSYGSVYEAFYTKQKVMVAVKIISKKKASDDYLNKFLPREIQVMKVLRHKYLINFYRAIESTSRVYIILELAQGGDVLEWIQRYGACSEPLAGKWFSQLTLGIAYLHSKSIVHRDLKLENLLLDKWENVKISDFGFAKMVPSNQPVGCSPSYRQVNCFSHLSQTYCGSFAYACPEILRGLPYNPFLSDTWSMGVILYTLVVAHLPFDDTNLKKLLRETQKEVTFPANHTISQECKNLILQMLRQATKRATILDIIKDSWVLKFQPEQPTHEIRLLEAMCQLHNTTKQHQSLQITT
Sequence of UniProt Q15120 (whole entry, looked up): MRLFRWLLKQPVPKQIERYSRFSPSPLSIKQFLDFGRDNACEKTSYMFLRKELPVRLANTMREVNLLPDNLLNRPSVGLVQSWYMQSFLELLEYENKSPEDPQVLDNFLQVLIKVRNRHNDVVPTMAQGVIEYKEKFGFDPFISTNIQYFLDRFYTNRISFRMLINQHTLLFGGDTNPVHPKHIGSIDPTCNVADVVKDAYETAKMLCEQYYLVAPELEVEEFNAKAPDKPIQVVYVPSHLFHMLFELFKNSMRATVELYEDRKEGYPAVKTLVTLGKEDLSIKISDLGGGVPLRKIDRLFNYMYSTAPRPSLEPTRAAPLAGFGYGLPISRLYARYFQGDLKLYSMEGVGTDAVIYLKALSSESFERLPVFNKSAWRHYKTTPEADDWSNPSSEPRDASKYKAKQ
Sequence of UniProt Q13639 (whole entry, looked up): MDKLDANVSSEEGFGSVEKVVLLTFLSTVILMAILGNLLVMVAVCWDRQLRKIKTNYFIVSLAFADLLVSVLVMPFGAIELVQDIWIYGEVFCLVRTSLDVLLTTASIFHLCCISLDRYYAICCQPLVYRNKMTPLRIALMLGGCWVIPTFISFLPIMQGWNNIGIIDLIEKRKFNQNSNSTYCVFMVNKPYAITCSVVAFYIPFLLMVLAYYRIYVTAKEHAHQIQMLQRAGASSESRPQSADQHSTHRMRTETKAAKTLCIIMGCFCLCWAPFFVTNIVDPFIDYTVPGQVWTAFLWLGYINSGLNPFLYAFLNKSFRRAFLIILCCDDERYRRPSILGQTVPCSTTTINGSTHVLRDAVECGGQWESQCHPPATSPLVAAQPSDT
Sequence of UniProt Q9NR22 (whole entry, looked up): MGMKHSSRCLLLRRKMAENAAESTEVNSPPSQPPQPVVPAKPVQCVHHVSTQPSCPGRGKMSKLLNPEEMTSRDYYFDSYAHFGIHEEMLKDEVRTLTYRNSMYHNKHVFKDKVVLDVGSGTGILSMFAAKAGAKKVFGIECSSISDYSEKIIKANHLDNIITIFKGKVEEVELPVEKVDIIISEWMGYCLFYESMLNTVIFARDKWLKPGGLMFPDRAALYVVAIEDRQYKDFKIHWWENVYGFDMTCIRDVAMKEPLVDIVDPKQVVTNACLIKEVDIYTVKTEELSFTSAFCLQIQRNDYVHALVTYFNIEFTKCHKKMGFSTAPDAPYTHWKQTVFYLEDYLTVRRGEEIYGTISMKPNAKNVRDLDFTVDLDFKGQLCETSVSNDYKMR

SMILES | target | test | test system | conditions | inhibition
Cc1cc(O)ccc1N/C=C/C(=O)c1ccccc1 | KCNT1 (Homo sapiens, UniProt Q5JUK3) | ion current, inhibitor, patch clamp | HEK293 | 10 µM | > 40%
CN(C)c1nc(NCc2ccc(F)c(C(F)(F)F)c2)c(/N=N/c2ccc(Cl)cc2)c(N(C)C)n1 | OfChi-h | enzyme activity, inhibitor, fluorescence | – | 1 µM | 85.1%
CN(C)c1cc(N)c2cc(Cl)ccc2n1 | Uncharacterized protein | enzyme activity, inhibitor, coupled colorimetric | – | 30 µM, with: E. coli pyrophosphatase coupling | 38.6%
CN(C)c1nc(NCc2c(F)cccc2C(F)(F)F)c(/N=N/c2ccc(Cl)cc2)c(N(C)C)n1 | OfChi-h | enzyme activity, inhibitor, fluorescence | – | 1 µM | 87.9%
Oc1cc2c(cc1O)C(c1cccc3[nH]ccc13)NCC2 (centres unmarked) | tyrosinase | enzyme activity, inhibitor | – | 100 µM, with: levodopa | 29.3 ± 0.75%
O=C1c2sc(-c3ccc(N4CCC(CO)CC4)nc3F)nc2CCN1c1cccnc1 | PTGIR (Homo sapiens, UniProt P43119) | ligand displacement, radioligand | – | 1 µM | -7%
Cn1c(C=NOCc2ccc(-c3nc4cc(-c5ccccc5)ccn4c3Nc3ccc(C(=O)O)cc3)cc2)nc2cc([N+](=O)[O-])ccc21 | TDP1 | enzyme activity, inhibitor | – | 100 µM | 79.9%
C[C@@H]1CN(Cc2ccccc2)[C@H]2C[C@@H]1CC(=O)[C@@H]2C | Tmem97 (Rattus norvegicus, UniProt Q5U3Y7) | ligand displacement, radioligand | – | 1 µM | 7%
CC(C)Cn1c(SCC(=O)N2CCc3ccccc3C2)nc2cc(Cl)ccc2c1=O | ADRB3 (Homo sapiens, UniProt P13945) | ligand displacement, radioligand | – | 10 µM | 29%
COc1ccc(NC(=O)Nc2cc(C(C)(C)C)on2)cc1OC | Uncharacterized protein | enzyme activity, inhibitor, coupled colorimetric | – | 30 µM, with: E. coli pyrophosphatase coupling | 22.6%
CO[C@@H](C)c1c(NC(=O)Nc2cnc(-n3nccn3)c(C(F)(F)F)c2)cnc2sc(C)nc12 | CCKAR | ligand displacement, radioligand | – | 10 µM | -0.5%
C[N+](C)(CCCN1c2ccccc2CCc2ccc(Cl)cc21)CC(=O)c1ccccc1 | Uncharacterized protein | enzyme activity, inhibitor, coupled colorimetric | – | 30 µM, with: E. coli pyrophosphatase coupling | 27.7%
CCOC(=O)CCCCC1NCCc2cc(O)c(O)cc21 (centres unmarked) | tyrosinase | enzyme activity, inhibitor | – | 100 µM, with: levodopa | -17.2 ± 0.64%
O=C(O)c1ccc(Nc2c(-c3ccc(CON=CC=Cc4cn(Cc5ccccc5)nn4)cc3)nc3cc(-c4ccccc4)ccn23)cc1 | TDP1 | enzyme activity, inhibitor | – | 100 µM, unpurified compound | 59.1%
Cc1nc2c(F)cc(-c3nc(Nc4ccc(CNC(=O)CCCCCCC(=O)NO)cc4)ncc3F)cc2n1C(C)C | Phosphatidylinositol 4,5-bisphosphate 3-kinase catalytic subunit alpha isoform, with p85 alpha (Pik3ca, Mus musculus, UniProt P42337, E542K) | enzyme activity | – | 1 µM, p110α(E542K)/p85α)(m mouse | 32%
O=C(O)c1ccc(Nc2c(-c3ccccc3)nc3ccc(CON=Cc4[nH]ncc4Br)cn23)cc1 | TDP1 | enzyme activity, inhibitor | – | 100 µM, unpurified compound | -2%
Cc1ccnc(OC[C@H]2CN(CCN3CCc4ccccc43)CCO2)c1 | HTR4 (Homo sapiens, UniProt Q13639) | radioligand binding | – | concentration not given | 45%
COc1ccc(C=NOCc2ccc(-c3nc4cc(-c5ccccc5)ccn4c3Nc3ccc(C(=O)O)cc3)cc2)cc1OCC#N | TDP1 | enzyme activity, inhibitor | – | 100 µM, unpurified compound | 33.2%
CC(=O)C12NC(C)(C)CC1(C)C(=O)C1=C2c2c(c3c4n2C(C)(C)CC2=C4C4(CC(C)(C)NC(C)(C4)C2=O)CC3(C)C)C(=O)C(C)(C)N1 (single isomer, unassigned; (+)) | CACNA1G (Homo sapiens, UniProt O43497) | calcium current, antagonist, whole-cell patch clamp | HEK293T cells | 10 µM | 4.86 ± 0.12%
C[N+]1(Cc2ccc3ccccc3c2)CCN(CCCN2c3ccccc3Sc3ccc(Cl)cc32)CC1 | ppa | inhibitor, counter-screen, coupling enzyme alone | – | 30 µM | 34.7%
COc1cc(C=NOCc2ccc(-c3nc4cc(-c5ccccc5)ccn4c3Nc3ccc(C(=O)O)cc3)cc2)cc(I)c1OC (mixture of isomers) | TDP1 | enzyme activity, inhibitor | – | 100 µM, unpurified compound | 39%
COc1cc(OC)c(F)c(/C=C/c2cnc3ccn(S(=O)(=O)c4cn(CCF)cn4)c3n2)c1F | SRC (Homo sapiens, UniProt P12931) | – | – | 10 nM | 0%

SMILES | target | test | test system | conditions | inhibition
CN(C)C/C=C/C(=O)Nc1ccc2nc(NCCCCCN(C)C)nc(NCCCCCCN(C)C)c2c1 | PRMT8 (Homo sapiens, UniProt Q9NR22) | enzyme activity, inhibitor, radiometric | – | 10 µM | 51%
C[Si](C)(C)C[C@H](CN)CC(=O)O | TACR3 (Homo sapiens, UniProt P29371) | ligand displacement, radioligand | – | 250 µM | -7%
CCn1cc(C(=O)O)c(=O)c2c(N)c(F)c(NC3CCCCC3)cc21 | PDK3 (Homo sapiens, UniProt Q15120) | kinase activity | – | 0.1 µM, with: ATP at Km | 10.3%
COc1ccc2c(c1OC)C(=O)N(c1nc3ccccc3s1)C2 | Uncharacterized protein | enzyme activity, inhibitor, coupled colorimetric | – | 30 µM, with: E. coli pyrophosphatase coupling | 22.5%
C/C=C/C(=O)Nc1ccc2nc(NCCCCCN(C)C)nc(NCCCCCCN(C)C)c2c1 | EHMT1 (Homo sapiens, UniProt Q9H9B1) | enzyme activity, inhibitor, radiometric | – | 50 µM | 53%
CCc1c(-c2ccc3[nH]ncc3c2)cnc(N)c1-c1ccc(O)cc1 | USP7 (Homo sapiens, UniProt Q93009, V517F) | enzyme activity, inhibitor | – | 50 µM | 60.2% and 42.7%
Brc1ccccc1-c1nnc(CSc2nnnn2-c2ccccc2)o1 | sigma receptor 1 | radioligand binding | – | 10 µM | 8%
CCNc1sc(C(C)=O)c(N)c1C#N | Uncharacterized protein | enzyme activity, inhibitor, coupled colorimetric | – | 30 µM, with: E. coli pyrophosphatase coupling | 36.2%
C[Si]1(C[C@H](CN)CC(=O)O)CCCC1 | OPRK1 (Homo sapiens, UniProt P41145) | ligand displacement, radioligand | – | 70 µM | -11%
CC(=O)C1=C(c2ccc(F)cc2)N(C(C)=O)n2cnnc2S1 | ppa | inhibitor, counter-screen, coupling enzyme alone | – | 30 µM | 34.2%
CC1=NN(c2cccc(F)c2)C(=O)/C1=N\Nc1ccc(S(N)(=O)=O)cc1 | bovine α-glucosidase | enzyme activity, inhibitor, glucose oxidase | – | 10 µg/mL, with: maltose | 25.065 ± 0.000863%
COCC(=O)N1CCc2cc(-c3csc(NC(=O)c4cc(OC)cc(OC)c4)n3)ccc21 | EDNRB (Homo sapiens, UniProt P24530) | ligand displacement, radioligand | – | 10 µM | 5%
O=C(O)c1ccc(Nc2c(-c3ccc(CON=Cc4ccc(-n5ccnc5)cc4)cc3)nc3cc(-c4ccccc4)ccn23)cc1 | TDP1 | enzyme activity, inhibitor | – | 100 µM, unpurified compound | 77.5%
COc1ccc(S(=O)(=O)N2CCc3ccccc3C2)cc1N1CCN(C(=O)c2ccc(F)cc2C(F)(F)F)CC1 | CCKAR | ligand displacement, radioligand | – | 1 µM | 5.7%
C[N+](C)(C/C=C/CN1C(=O)c2ccccc2C1=O)CCCN1c2ccccc2CCc2ccc(Cl)cc21 | Uncharacterized protein | enzyme activity, inhibitor, coupled colorimetric | – | 30 µM, with: E. coli pyrophosphatase coupling | 38.6%
COc1nc2c(C)cccn2c(=O)c1C=NOCc1ccc2nc(-c3ccccc3)c(Nc3ccc(C(=O)O)cc3)n2c1 | TDP1 | enzyme activity, inhibitor | – | 100 µM, unpurified compound | -19%
CN1CC[C@@H](COc2cnc(C#N)cc2-c2ccn3nc(NC(=O)C4CC4)cc3c2)C1 | TSSK4 (Homo sapiens, UniProt Q6SA08) | enzyme activity, inhibitor | – | 1 µM | 9%
CN1CCN(Cc2ccc(-c3ccc(CO[C@H]4CCC[C@@H]4NC(=O)c4cc(-c5cnn(C)c5)cnc4N)cc3)cc2)CC1 | PI4K2B (Homo sapiens, UniProt Q8TCG2) | enzyme activity, inhibitor | – | 0.1 µM | 0%
O=C1c2sc(-c3ccc(N4CCC(F)C4)nc3F)nc2CCN1c1cccnc1 (centres unmarked) | SLC5A7 (Homo sapiens, UniProt Q9GZV3) | ligand displacement, radioligand | – | 1 µM | 13%
CC1=NN(c2ccccc2F)C(=O)/C1=N\Nc1ccc(S(N)(=O)=O)cc1 | bovine α-glucosidase | enzyme activity, inhibitor, glucose oxidase | – | 10 µg/mL, with: maltose | 32.817 ± 0.000577%
CN(Cc1ccc(/C=C/C(=O)NO)cc1)CC12CC3CC(CC(C3)C1)C2 | human V1a receptor | agonist radioligand binding | – | 0.05 µM | -1%
O=C(O)c1ccc(Nc2c(-c3ccccc3)nc3ccc(CON=Cc4cc(Cl)ccc4OCc4cccnc4)cn23)cc1 | TDP1 | enzyme activity, inhibitor | – | 100 µM, unpurified compound | 11.9%

Excerpt of the above:
SMILES | target | test | test system | conditions | inhibition
CC1=NN(c2ccccc2F)C(=O)/C1=N\Nc1ccc(S(N)(=O)=O)cc1 | bovine α-glucosidase | enzyme activity, inhibitor, glucose oxidase | – | 10 µg/mL, with: maltose | 32.817 ± 0.000577%
CCc1c(-c2ccc3[nH]ncc3c2)cnc(N)c1-c1ccc(O)cc1 | USP7 (Homo sapiens, UniProt Q93009, V517F) | enzyme activity, inhibitor | – | 50 µM | 60.2% and 42.7%
CC(=O)C1=C(c2ccc(F)cc2)N(C(C)=O)n2cnnc2S1 | ppa | inhibitor, counter-screen, coupling enzyme alone | – | 30 µM | 34.2%
O=C(O)c1ccc(Nc2c(-c3ccc(CON=CC=Cc4cn(Cc5ccccc5)nn4)cc3)nc3cc(-c4ccccc4)ccn23)cc1 | TDP1 | enzyme activity, inhibitor | – | 100 µM, unpurified compound | 59.1%
CN(C)c1nc(NCc2ccc(F)c(C(F)(F)F)c2)c(/N=N/c2ccc(Cl)cc2)c(N(C)C)n1 | OfChi-h | enzyme activity, inhibitor, fluorescence | – | 1 µM | 85.1%
